Results pooled from the literature.
Lines come from different studies, so protocols differ.
Sequence of UniProt Q12809 (whole entry, looked up): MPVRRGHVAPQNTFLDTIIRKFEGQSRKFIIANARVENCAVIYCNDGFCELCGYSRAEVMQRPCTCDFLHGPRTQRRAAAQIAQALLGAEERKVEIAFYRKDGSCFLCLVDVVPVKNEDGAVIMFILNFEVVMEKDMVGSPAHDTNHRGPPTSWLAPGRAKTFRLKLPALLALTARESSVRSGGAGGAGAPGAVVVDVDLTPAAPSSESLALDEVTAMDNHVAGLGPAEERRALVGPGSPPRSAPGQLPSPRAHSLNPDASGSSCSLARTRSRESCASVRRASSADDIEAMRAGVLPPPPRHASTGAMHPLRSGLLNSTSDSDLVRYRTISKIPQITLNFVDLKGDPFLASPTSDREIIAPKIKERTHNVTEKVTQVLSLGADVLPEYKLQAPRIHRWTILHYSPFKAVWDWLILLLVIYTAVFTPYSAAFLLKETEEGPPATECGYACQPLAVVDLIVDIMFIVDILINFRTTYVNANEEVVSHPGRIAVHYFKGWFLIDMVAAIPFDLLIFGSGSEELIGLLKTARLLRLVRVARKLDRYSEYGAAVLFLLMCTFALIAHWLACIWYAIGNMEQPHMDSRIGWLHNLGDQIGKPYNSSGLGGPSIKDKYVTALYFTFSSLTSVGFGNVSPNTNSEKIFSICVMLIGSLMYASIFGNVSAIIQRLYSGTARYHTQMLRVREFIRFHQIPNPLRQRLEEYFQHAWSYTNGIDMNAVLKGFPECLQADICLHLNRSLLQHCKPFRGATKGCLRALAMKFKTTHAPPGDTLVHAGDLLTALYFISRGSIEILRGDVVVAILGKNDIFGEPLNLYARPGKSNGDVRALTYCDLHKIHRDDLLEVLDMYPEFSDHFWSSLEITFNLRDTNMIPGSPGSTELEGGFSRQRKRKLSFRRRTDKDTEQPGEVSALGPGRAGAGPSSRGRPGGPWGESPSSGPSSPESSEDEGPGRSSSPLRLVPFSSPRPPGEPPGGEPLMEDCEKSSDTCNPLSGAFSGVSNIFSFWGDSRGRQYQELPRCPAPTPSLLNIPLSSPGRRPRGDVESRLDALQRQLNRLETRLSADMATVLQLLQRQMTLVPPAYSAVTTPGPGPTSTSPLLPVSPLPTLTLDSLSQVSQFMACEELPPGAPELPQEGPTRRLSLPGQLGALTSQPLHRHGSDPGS

SMILES	tested on	assay	test system	setting	scale	measurement	value
Cc1ccc(Oc2ccc(-c3ccn4c(CC5CC5)nnc4c3C(F)(F)F)cc2F)c(C)n1	–	–	human liver microsomes	5 µM, 15 min	–	compound metabolized	31%
CCCCNC(=N)c1ccc(OCCSCCOc2ccc(C(=N)NCCCC)cc2)cc1	KCNH2 (Homo sapiens, UniProt Q12809)	inhibitor, Western blot	HEK293 expressing KCNH2	0.5 to 20 µM, 24 h	–	protein maturation	decreased
CC[C@H](C)[C@@H]1NC(=O)[C@H](CC(C)C)NC(=O)[C@H](Cc2ccccc2)NC(=O)[C@H](Cc2ccccc2)NC(=O)[C@@H]2CCCN2C(=O)[C@@H]2CCCN2C(=O)[C@H](C(C)C)NC(=O)[C@H](CC(C)C)NC(=O)[C@H]([C@@H](C)CC)NC1=O	SK-BR-3	LDH release	–	25 µg/mL, 24 h	–	cytotoxicity	9%
CCCCCC(=O)OCn1cc(F)c(=O)[nH]c1=O	Caco-2 without butyric acid induction	–	–	concentration not given	baseline: butyric acid-induced cells	uptake	no effect
O=C[C@H](C[C@@H]1CCNC1=O)NC(=O)[C@H](CC1CCCCC1)NS(=O)(=O)c1cccc(Cl)c1	CRFK	cell growth or viability	–	36 h	–	CC50	> 150 µM
Cc1ccc(NC(=O)Nc2ccnc(-c3cccnc3)n2)cc1	MRC5	cell growth or viability	–	–	–	EC50	12 µM
CCCCn1ccn2c(-c3ccc(NC4CCOCC4)c(Cl)c3)c(C)nc2c1=O	–	–	rat liver microsomes	5 µM, 15 min	–	metabolized fraction	71%
CC(C)C[C@H](NC(=O)OCc1ccccc1)C(=O)N[C@@H](C[C@@H]1CCNC1=O)C(O)S(=O)(=O)O (stereo partly drawn)	feline coronavirus	–	CRFK, FIPV-1146	–	baseline: CC50 over EC50	therapeutic index	> 3000
CC[C@H](C)[C@@H]1NC(=O)[C@H](C(C)C)NC(=O)[C@H](Cc2ccccc2)NC(=O)[C@H](Cc2ccccc2)NC(=O)[C@@H]2CCCN2C(=O)[C@@H]2CCCN2C(=O)[C@H]([C@@H](C)CC)NC(=O)[C@H](CC(C)C)NC(=O)[C@H](CCSC)NC1=O	MCF7	LDH release	–	200 µg/mL, 48 h	–	cytotoxicity	8%
COc1ccc(CNc2ccc(-c3ccn4c(CC5CC5)nnc4c3C(F)(F)F)cc2F)cn1	–	–	rat Sprague Dawley male, plasma	subcutaneous, 10 mg/kg, 2 h	–	plasma concentration	1350 ng/mL
O=C[C@H](C[C@@H]1CCNC1=O)NC(=O)[C@H](CC1CCCCC1)NS(=O)(=O)c1ccc(Cl)cc1	CRFK	cell growth or viability	–	36 h	–	CC50	> 150 µM
CCCCn1ccn2c(-c3ccc(Oc4ccnc(C)c4)c(F)c3)c(C)nc2c1=O	–	–	Sprague Dawley rat male, brain	oral, 10 mg/kg, 2 h	–	brain concentration	343 ng/g
O=C(N[C@@H](CC1CCCCC1)C(=O)N[C@@H](C[C@@H]1CCNC1=O)C(O)S(=O)(=O)O)OCc1ccccc1 (stereo partly drawn)	CRFK	cell growth or viability	–	36 h	–	CC50	> 150 µM
CCCCn1ccn2c(-c3ccc4[nH]ccc4c3)c(C)nc2c1=O	–	–	male Sprague Dawley rat, brain	oral, 10 mg/kg, 1 h	–	brain concentration	not detected
O=C[C@H](C[C@@H]1CCNC1=O)NC(=O)[C@H](CC1CCCCC1)NC(=O)OCc1ccccc1	feline coronavirus	–	CRFK, FIPV-1146	–	baseline: CC50 over EC50	therapeutic index	> 2140
Clc1nnc(N/N=C/c2ccc(Br)cc2)c2ccccc12	murine peritoneal macrophages	–	–	–	baseline: CC50 macrophages over IC50 β-hematin	selectivity index	> 10.6
CC(C)C[C@H](NC(=O)OCc1ccccc1)C(=O)N[C@@H](C[C@@H]1CCNC1=O)C(=O)C(=O)NC1CCCCC1	CRFK	cell growth or viability	–	36 h	–	CC50	> 150 µM
FC(F)(F)c1c(-c2ccc(NC3CCOCC3)c(Cl)c2)ccn2c(CC3CC3)nnc12	–	–	rat liver microsomes	5 µM, 15 min	–	compound metabolized	73%

For quick reference, copied from above:
SMILES	tested on	assay	test system	setting	scale	measurement	value
O=C(N[C@@H](CC1CCCCC1)C(=O)N[C@@H](C[C@@H]1CCNC1=O)C(O)S(=O)(=O)O)OCc1ccccc1 (stereo partly drawn)	CRFK	cell growth or viability	–	36 h	–	CC50	> 150 µM
